Measured values gathered from unrelated publications.
Numbered parts are unrelated; each lists some results of a single study.
UniProt P10721, sequence (whole entry, looked up): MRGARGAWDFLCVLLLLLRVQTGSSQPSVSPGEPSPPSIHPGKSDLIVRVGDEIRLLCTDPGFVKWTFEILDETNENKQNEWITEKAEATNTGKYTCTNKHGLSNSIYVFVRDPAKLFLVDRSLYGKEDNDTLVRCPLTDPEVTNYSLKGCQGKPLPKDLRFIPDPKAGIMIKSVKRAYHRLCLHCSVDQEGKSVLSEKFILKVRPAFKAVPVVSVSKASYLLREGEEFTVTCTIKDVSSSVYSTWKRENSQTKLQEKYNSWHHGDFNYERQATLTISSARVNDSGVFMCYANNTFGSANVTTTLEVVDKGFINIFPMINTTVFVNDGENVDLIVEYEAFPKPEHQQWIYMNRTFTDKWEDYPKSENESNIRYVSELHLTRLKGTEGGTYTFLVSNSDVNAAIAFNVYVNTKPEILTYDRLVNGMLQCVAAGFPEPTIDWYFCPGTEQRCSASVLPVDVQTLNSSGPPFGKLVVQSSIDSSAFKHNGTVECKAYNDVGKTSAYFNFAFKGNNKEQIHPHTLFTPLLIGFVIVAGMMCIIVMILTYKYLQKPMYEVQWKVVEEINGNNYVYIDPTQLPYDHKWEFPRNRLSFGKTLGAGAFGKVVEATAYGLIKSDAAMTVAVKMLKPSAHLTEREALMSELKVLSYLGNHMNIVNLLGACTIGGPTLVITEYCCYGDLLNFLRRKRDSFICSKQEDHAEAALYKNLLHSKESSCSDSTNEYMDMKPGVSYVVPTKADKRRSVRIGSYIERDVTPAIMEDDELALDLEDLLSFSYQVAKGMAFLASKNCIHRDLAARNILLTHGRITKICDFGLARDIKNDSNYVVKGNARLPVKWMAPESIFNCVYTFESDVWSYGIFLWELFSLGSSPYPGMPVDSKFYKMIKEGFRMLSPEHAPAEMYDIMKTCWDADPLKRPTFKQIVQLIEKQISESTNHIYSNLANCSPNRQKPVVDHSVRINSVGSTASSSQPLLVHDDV
UniProt Q7L7X3, sequence (whole entry, looked up): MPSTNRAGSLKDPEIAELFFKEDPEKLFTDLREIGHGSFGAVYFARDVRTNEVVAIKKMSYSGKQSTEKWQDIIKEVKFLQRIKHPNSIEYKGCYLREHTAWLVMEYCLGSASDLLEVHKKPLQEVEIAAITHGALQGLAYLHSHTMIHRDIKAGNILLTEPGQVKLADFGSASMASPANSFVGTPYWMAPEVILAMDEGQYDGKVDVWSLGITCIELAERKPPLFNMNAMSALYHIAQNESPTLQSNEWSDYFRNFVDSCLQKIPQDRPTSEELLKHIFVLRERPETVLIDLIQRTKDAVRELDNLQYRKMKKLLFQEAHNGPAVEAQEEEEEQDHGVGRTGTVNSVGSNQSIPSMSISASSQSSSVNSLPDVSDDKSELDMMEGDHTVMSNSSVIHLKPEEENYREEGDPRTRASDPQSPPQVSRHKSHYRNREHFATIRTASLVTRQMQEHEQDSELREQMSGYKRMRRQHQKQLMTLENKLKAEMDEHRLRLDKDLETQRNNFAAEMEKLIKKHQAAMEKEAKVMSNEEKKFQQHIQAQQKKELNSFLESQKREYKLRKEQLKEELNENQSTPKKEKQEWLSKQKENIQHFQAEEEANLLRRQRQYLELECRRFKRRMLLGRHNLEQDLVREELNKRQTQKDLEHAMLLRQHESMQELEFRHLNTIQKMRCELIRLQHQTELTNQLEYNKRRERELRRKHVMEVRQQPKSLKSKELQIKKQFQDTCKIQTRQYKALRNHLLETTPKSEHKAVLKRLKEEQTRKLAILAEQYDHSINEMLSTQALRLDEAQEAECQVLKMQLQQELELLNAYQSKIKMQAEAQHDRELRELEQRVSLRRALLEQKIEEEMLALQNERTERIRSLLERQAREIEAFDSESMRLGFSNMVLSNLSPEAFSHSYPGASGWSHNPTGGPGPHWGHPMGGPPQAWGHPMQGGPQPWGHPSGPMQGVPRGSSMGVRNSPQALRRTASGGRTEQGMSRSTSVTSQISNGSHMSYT
UniProt O14733, sequence (whole entry, looked up): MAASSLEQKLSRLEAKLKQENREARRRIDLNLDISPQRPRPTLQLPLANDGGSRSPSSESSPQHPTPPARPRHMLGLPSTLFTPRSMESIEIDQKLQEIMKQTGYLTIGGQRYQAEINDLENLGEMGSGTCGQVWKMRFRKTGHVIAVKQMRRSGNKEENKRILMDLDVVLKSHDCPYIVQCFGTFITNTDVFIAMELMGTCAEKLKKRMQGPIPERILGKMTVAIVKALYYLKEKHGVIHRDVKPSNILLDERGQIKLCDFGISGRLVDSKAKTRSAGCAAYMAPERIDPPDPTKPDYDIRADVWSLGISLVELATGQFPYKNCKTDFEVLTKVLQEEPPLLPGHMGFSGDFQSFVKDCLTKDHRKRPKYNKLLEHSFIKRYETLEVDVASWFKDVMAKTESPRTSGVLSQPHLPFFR
UniProt Q08345, sequence (whole entry, looked up): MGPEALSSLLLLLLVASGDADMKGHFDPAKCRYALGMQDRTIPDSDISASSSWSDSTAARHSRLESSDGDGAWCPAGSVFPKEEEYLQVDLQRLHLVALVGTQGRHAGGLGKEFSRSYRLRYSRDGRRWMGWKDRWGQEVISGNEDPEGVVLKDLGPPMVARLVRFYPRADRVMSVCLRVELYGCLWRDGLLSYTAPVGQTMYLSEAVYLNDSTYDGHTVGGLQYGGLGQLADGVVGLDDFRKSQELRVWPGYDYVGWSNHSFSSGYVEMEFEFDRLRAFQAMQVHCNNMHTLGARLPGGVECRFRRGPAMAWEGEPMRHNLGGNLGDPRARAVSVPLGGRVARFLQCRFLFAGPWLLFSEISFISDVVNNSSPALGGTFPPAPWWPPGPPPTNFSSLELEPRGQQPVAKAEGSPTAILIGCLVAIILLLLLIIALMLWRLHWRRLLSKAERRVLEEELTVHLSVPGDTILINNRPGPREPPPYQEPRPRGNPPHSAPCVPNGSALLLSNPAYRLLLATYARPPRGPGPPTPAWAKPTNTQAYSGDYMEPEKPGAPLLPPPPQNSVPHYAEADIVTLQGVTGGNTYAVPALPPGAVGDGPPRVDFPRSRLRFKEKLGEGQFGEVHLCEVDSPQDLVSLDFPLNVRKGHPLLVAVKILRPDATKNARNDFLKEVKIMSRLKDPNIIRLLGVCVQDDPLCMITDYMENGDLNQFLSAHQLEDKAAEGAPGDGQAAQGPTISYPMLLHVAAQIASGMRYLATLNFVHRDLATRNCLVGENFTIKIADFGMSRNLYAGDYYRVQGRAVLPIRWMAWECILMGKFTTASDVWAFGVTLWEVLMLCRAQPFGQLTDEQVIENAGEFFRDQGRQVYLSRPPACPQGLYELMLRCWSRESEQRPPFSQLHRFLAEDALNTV
UniProt Q9NRM7, sequence (whole entry, looked up): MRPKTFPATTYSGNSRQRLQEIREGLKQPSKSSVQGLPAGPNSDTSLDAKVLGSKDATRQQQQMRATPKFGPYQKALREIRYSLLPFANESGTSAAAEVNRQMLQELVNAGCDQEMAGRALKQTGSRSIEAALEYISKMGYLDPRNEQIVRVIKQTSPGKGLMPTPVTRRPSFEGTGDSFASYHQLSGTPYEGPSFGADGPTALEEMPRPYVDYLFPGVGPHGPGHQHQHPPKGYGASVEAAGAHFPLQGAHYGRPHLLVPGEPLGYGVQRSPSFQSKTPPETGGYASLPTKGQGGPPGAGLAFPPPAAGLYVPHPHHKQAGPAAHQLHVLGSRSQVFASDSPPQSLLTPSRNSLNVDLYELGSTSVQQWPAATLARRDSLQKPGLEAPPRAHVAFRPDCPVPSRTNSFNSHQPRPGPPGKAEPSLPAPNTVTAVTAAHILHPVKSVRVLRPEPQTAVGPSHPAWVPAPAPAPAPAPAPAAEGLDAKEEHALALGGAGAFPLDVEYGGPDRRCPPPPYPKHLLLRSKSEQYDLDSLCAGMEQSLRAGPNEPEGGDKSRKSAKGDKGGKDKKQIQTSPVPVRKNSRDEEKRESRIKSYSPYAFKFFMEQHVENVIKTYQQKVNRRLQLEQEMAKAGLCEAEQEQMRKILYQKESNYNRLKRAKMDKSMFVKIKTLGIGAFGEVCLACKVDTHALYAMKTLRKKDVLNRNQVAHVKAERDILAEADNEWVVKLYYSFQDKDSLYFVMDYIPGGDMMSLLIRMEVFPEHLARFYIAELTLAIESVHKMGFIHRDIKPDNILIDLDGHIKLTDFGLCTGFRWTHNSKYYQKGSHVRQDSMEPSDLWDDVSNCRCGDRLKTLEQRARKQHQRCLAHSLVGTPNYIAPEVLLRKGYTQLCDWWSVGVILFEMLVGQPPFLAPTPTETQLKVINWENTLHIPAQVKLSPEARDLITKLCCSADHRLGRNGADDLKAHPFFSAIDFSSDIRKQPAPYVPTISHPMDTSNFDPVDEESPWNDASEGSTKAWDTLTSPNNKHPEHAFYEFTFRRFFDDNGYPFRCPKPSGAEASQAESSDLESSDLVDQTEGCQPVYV
UniProt P07947, sequence (whole entry, looked up): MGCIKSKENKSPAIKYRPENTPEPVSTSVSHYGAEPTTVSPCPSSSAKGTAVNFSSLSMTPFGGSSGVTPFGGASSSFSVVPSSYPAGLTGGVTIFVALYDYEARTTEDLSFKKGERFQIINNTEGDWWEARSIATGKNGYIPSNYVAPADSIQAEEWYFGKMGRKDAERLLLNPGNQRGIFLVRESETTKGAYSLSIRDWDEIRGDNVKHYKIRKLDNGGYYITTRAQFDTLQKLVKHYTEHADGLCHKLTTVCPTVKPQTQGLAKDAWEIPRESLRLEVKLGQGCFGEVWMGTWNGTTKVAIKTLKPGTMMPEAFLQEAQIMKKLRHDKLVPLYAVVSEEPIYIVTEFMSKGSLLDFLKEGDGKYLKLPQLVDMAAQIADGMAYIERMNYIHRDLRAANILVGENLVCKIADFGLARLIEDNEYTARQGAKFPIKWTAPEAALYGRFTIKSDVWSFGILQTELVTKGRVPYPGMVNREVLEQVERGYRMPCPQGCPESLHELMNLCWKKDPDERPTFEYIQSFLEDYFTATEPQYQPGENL

Sample 1 — effect on: enzyme activity; action: inhibitor; tested at: 0.5 µM; reference: control
Target: Beta-adrenergic receptor kinase 1 (GRK2, Homo sapiens, UniProt P25098)
Target sequence (P25098 1-689): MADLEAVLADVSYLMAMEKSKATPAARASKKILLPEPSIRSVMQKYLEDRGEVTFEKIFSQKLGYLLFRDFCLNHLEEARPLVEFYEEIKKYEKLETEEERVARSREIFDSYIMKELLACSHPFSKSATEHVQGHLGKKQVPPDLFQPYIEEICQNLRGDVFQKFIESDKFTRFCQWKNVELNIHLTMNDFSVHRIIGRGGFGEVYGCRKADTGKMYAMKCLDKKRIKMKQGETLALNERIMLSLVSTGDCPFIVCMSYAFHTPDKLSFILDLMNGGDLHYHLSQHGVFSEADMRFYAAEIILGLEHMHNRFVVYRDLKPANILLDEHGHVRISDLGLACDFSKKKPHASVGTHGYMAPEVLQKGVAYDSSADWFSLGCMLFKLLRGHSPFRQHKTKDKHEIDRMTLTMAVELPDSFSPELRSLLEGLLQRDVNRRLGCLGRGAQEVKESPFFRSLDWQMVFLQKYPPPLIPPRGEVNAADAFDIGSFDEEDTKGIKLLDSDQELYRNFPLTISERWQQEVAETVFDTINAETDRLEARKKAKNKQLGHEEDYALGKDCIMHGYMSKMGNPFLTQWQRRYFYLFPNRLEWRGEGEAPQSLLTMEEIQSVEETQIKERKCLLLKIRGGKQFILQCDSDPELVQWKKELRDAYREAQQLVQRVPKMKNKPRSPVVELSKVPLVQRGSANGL
Compound | remaining activity [%]
Cc1ccc(NC(=O)c2ccc(CN3CCN(C)CC3)cc2)cc1Nc1nc(-c2cccnc2)cs1 | 121
Oc1ccc(-c2nc(-c3ccncc3)c(-c3ccc(F)cc3)[nH]2)cc1 | 101
Cc1nc(-c2ccccc2)c(-c2ccncc2)o1 | 100
Cn1sc(=O)n(Cc2ccccc2)c1=O | 96.7
N#CC(C#N)=C(N)/C(C#N)=C/c1ccc(O)cc1 | 104
OCC(O)CCON=C1C(c2c(O)[nH]c3ccccc23)=Nc2ccccc21 (stereo not shown) | 101
O=C1NC(=O)C(c2cn(CCCO)c3ncccc23)=C1c1cnccn1 | 114
O=c1c2ccccc2[nH]c(=S)n1CCN1CCC(=C(c2ccc(F)cc2)c2ccc(F)cc2)CC1 | 100
C#Cc1cccc(Nc2ncnc3cc(OCCOC)c(OCCOC)cc23)c1 | 92.9
CCOC(=O)c1c(C)[nH]c(/C=C2\C(=O)Nc3ccccc32)c1C | 98.2
Cc1cccc(-c2[nH]c(C(C)(C)C)nc2-c2ccc3c(c2)OCO3)n1 | 105
COc1ccc(OC)c2c(=S)c3ccccc3[nH]c12 | 92.5
COc1cc2ncnc(Nc3ccc(F)c(Cl)c3)c2cc1OCCCN1CCOCC1 | 93.3
O=C(O)c1ccc2c3c1cccc3c(=O)n1c3ccccc3nc21 | 99.3
Nc1ncnc2n[nH]c(Nc3ccc(F)cc3)c12 | 98.6
CC(C)[C@H](CO)Nc1nc(Nc2cc(N)cc(Cl)c2)c2ncn(C(C)C)c2n1 | 83
COc1ccc(C(=O)Nc2sc3c(c2C(N)=O)CCCC3)cc1OC | 96.8
Nc1[nH]nc2nc3ccccc3nc12 | 101
CNC(=O)c1cc(Oc2ccc(NC(=O)Nc3ccc(Cl)c(C(F)(F)F)c3)cc2)ccn1 | 112
O=S(=O)(c1cccc2cnccc12)N1CCCNCC1 | 105
O=C(Nc1cccc(Nc2cc(Nc3cccc(C(F)(F)F)c3)ncn2)c1)C1CC1 | 97.9

Sample 2 — organism: Sarcocystis neurona; effect on: parasite growth; tested at: 10 µM; time: 96 h; notes: second screen; reference: untreated
Structure (SMILES) | log2 fold change
Cc1cc2c(s1)Nc1ccccc1N=C2N1CCN(C)CC1 | 0.3
CC(C)(C)C(O)/C=C/c1ccc2c(c1)OCO2 (stereo not shown) | 0.5
C/C=C1\[C@H]2C=C(C)C[C@]1(N)c1ccc(=O)[nH]c1C2 | 0.41
CC(C)(C)NC(=O)[C@@H]1CN(Cc2cccnc2)CCN1C[C@@H](O)C[C@@H](Cc1ccccc1)C(=O)N[C@H]1c2ccccc2C[C@H]1O | 0.14
Nc1ccc(S(=O)(=O)c2ccc(N)cc2)cc1 | 0.31
Clc1ccccc1C(c1ccccc1)(c1ccccc1)n1ccnc1 | -1.09
Nc1ncnc2c1ncn2[C@@H]1O[C@H](CO)[C@@H](O)[C@@H]1O | 0.27
CCOc1cc(N)c(Cl)cc1C(=O)NCC1CN(Cc2ccc(F)cc2)CCO1 (stereo not shown) | -1.56

Sample 3 — effect on: cell-free assay; technique: competition with immobilised ligand; tested at: 1 µM
Structure (SMILES): O=C(Nc1cccnn1)N1CCC(=Cc2cccc(Oc3ccc(C(F)(F)F)cn3)c2)CC1
target | remaining binding [%]
PIK3CA (Homo sapiens, UniProt P42336, H1047Y) | 82
DDR1 (Homo sapiens, UniProt Q08345) | 79
LATS2 (Homo sapiens, UniProt Q9NRM7) | 84
TAOK1 (Homo sapiens, UniProt Q7L7X3) | 100
KIT (Homo sapiens, UniProt P10721) | 81
EGFR (Homo sapiens, UniProt P00533, del752-759) | 69
YES1 (Homo sapiens, UniProt P07947) | 100
MAP2K7 (Homo sapiens, UniProt O14733) | 100

Sample 4 — species: human; sample: microsomes or S9; tested at: 2 µM; time: 0.5 h
Compound | remaining compound [%]
CCCNS(=O)(=O)c1nc2nc(C)cc(C)n2n1 | 77.1
CCOC(=O)c1ccc(NC2C=CC(=O)C2Nc2ccc(C(=O)OCC)cc2)cc1 (stereo not shown) | 0.449
CCCC(=O)OC[C@@H](OC(=O)CCC)[C@@H](OC(=O)CCC)[C@H](Cn1c2nc(=O)[nH]c(=O)c-2nc2cc(C)c(C)cc21)OC(=O)CCC | 56.3
Cc1cc(C)c(S(=O)(=O)N2CCCCC2)c(C)c1N(C)S(C)(=O)=O | 14.9
O=C(Cn1cnc2c(nnn2-c2cccc(Cl)c2)c1=O)Nc1ccc2c(c1)OCCO2 | > 99
CCn1nc(CN[C@@H]2CCC(=O)N[C@H]2c2ccnn2C)c2ccccc21 | 85.8

Some of these lines once more (sample 4):
Compound | remaining compound [%]
Cc1cc(C)c(S(=O)(=O)N2CCCCC2)c(C)c1N(C)S(C)(=O)=O | 14.9
CCn1nc(CN[C@@H]2CCC(=O)N[C@H]2c2ccnn2C)c2ccccc21 | 85.8
CCCNS(=O)(=O)c1nc2nc(C)cc(C)n2n1 | 77.1
